Assay results pooled from the literature.
Each numbered part is a random draw from the data of one study; scales do not carry over between parts.

Study 1 — method: competition protein-binding microarray; molecule type: double-stranded DNA, one strand shown; sample: in vitro; tested at: 2 µM; with: Cbf1 competitor, 0.05 µM; direction: higher = stronger binding; all sequences stand within: … GTCTTGATTCGCTTGACGCTGCTG
Target: Phosphate system positive regulatory protein PHO4, full length, GST-tagged (PHO4, Saccharomyces cerevisiae, UniProt P07270, residues 1-312)
Setting: whole 60-bp probe, lowest competitor level
Residues (chain): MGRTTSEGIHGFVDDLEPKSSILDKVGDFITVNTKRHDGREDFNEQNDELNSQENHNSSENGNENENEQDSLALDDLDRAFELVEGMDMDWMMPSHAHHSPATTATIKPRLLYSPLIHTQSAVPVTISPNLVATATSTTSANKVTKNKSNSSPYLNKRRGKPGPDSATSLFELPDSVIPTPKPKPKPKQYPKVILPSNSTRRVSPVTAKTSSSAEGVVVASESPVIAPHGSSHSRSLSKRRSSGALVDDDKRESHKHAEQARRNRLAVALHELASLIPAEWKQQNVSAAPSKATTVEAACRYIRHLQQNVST
| Strand | fluorescence intensity |
| --- | --- |
| CTAACGAAGGTTTTTCACGTGAGGTACAAGCCAAGT | 9550 a.u. |
| CTGCGCTGCGGCCAGCCCGTGAGACCACCCGAGGGA | 4760 a.u. |
| TGCTGTAAGCAAAAGCACGGGTGGCCAAAGCAAAGG | 8440 a.u. |
| CGGGGTTAAGTTTTTCACGTGGTCTGCTTGCAGCAG | 11900 a.u. |
| CATACCCAACCTTTTCACGTGCCCTAAGATATTTGT | 18700 a.u. |
| AAATTACTAAGTTGTAGTGTGGGTGACGCCGTATGA | 5000 a.u. |
| AGTTACTATTTCTGGCTCGTGTAATATATGTATGCT | 9020 a.u. |
| CTAACGAAGGTTTGAGTAGTGGGTGACAAGCCAAGT | 3800 a.u. |
| AAAGCGGTAATTTGTCGAGTGGGTGCAGATATCTAT | 4330 a.u. |
| TAGTGGAAGGATGTACTCGTGATGGGGTTATGGTAG | 8260 a.u. |

Study 2 — method: RNA Bind-n-Seq; molecule type: RNA; sample: in vitro; tested at: 365 nM; reference: no-protein control; direction: higher = stronger binding
Target: RNA binding protein fox-1 homolog 2, RRM domain, GST-SBP tag (RBFOX2, Homo sapiens, UniProt O43251-10, residues 100-194)
Setting: natural RNA segment, single round, ends assumed
All sequences stand within: GGGAGUUCUACAGUCCGACGAUC … UGGAAUUCUCGGGUGCCAA
Residues (chain): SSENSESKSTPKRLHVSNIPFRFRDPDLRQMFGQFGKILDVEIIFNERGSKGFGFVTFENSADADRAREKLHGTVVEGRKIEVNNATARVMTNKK
| Strand | RBNS enrichment (R) |
| --- | --- |
| CACUGUGGGGCAUUUCACCAUUCAAACAGGUCGAGCUGUGCUCGGGUGCUGCCAGCUGCUCCCAAUGUGCCGAUGUCCGUGGGCAGAAUGACUUUUAUUGAGCUCUUGUU | 0.618 |
| ACUUGUAUUCUUAAAAUUGGAGGCUAGUUAUUUUGUCAAAUGCAUGUAAUGAACAGACCCGAAGGAAUCCUCCACACACAAGCCAGGGAACACCAACUGGAAAGGUACCC | 3.73 |
| CCCCCUGGGCUGACCAAAAUGUGCUUUCUACUGUGAGUCCCUAUCCCAAGAUCCUGGGGAAAGGAGAGACCAUGGUGUGAAUGUAGAGAUGCCACCUCCCUCUCUCUGAG | 0.707 |
| GAAAUCUUUACCCUUUAGUACCCGAACCAGUCUCAAGGUGUUCUUUGGAAAUAACCAGGGUUAAAGUUUUUAAUUUCUCAGGAAGAGCUCUUCAGCAUGGCAGGACGUGU | 3.22 |
| GUAAUGAUAGAGAAAAAACAAGGAAAACUAUUUAAUGAAAGCACGAUAUUUAUCUUUGGUAAAUGACUUUAGAGCAGUUAAAGACAUUGCUUAAAAACUCAGAAUCAGAA | 1.73 |
| AAAGUGGCCCACACAAGCCGUCUGAUUUGUCCUCCCACAUAAUGGCAGGCACAGGCCAUGGCACUGGAUUAGUUCUCAUGGGGACUGGUAGUACAAAAGGAUGUCUUUAA | 0.348 |

Study 3 — method: universal PBM; molecule type: double-stranded DNA, one strand shown; sample: in vitro; tested at: not given; direction: higher = stronger binding
Target: Sal-like protein 4, full length isoform B (SALL4, Homo sapiens, UniProt Q9UJQ4-2, residues 1-616)
Setting: 8-mer, flanks averaged, mean of replicates
Target sequence (chain): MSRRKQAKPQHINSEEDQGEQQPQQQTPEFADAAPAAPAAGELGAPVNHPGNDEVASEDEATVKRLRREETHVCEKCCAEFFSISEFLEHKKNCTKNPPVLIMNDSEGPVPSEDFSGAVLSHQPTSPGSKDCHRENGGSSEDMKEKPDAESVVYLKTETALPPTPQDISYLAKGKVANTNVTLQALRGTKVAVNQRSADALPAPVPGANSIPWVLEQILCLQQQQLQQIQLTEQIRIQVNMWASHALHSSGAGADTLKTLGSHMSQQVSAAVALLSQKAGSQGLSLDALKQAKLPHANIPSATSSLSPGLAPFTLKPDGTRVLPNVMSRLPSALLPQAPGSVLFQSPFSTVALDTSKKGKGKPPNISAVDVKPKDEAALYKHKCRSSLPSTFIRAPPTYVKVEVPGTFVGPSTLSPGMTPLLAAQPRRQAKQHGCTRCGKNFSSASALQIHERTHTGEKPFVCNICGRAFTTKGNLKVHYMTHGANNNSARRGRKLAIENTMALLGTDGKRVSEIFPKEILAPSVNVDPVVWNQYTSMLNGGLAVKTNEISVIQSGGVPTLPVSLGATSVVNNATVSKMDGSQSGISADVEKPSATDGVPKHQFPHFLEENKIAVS
| Strand | E-score |
| --- | --- |
| CCGCCTGA | -0.385 |
| GCTTGGAC | -0.155 |
| CTACGATC | 0.0234 |
| AACTATAG | 0.197 |
| AAGGAGGG | -0.192 |
| TGGTACCA | -0.161 |
| ACGACTAA | -0.0933 |

Mixed results
| Molecule | partner | method | sample | with | endpoint | result |
| --- | --- | --- | --- | --- | --- | --- |
| TRIM40 (Homo sapiens, UniProt Q6P9F5) | PHB2 (Homo sapiens, UniProt Q99623) | cross-linking MS | cell fractions | DMTMM | cross-linked residues | K141 to E233 |

A few entries again (study 1):
| Strand | fluorescence intensity |
| --- | --- |
| CTGCGCTGCGGCCAGCCCGTGAGACCACCCGAGGGA | 4760 a.u. |
| CGGGGTTAAGTTTTTCACGTGGTCTGCTTGCAGCAG | 11900 a.u. |
| TAGTGGAAGGATGTACTCGTGATGGGGTTATGGTAG | 8260 a.u. |
